Results collected from several papers.
Lines come from different studies, so protocols differ. ± gives the spread as reported.

For `C[C@@H]1NC(=O)[C@@H]2CCCN2C(=O)[C@H](CC(N)=O)NC(=O)[C@H](Cc2c[nH]c3ccccc23)NC(=O)[C@@H]2CSSC[C@H](NC1=O)C(=O)NCC(=O)N[C@@H](CCCCN)C(=O)N[C@@H](Cc1c[nH]cn1)C(=O)N[C@@H](Cc1ccc(O)cc1)C(=O)N[C@H](C(N)=O)CSSC[C@H](NC(=O)CN)C(=O)N2`, the remaining peptide was 61.2 ± 0.66% (RP-HPLC; mouse serum 25%; 50 µM, 6 h, 37 °C).
`CC[C@H](C)[C@H](NC(=O)[C@H](CO)NC(=O)[C@H](Cc1ccc(O)cc1)NC(=O)[C@@H]1CCCN1C(=O)[C@H](Cc1ccc(O)cc1)NC(=O)[C@H](CC(N)=O)NC(=O)CNC(=O)[C@H](CO)NC(=O)[C@H](Cc1ccc(O)cc1)NC(=O)[C@H](CO)NC(=O)[C@H](CO)NC(=O)[C@H](CC(N)=O)NC(=O)[C@H](C)NC(=O)[C@H](CCCCN)NC(=O)[C@H](CCSC)NC(=O)[C@@H](NC(=O)[C@H](CC(C)C)NC(=O)[C@@H](NC(=O)[C@H](Cc1ccc(O)cc1)NC(=O)[C@H](CCC(N)=O)NC(=O)CNC(=O)[C@H](C)NC(=O)[C@H](CC(=O)O)NC(=O)[C@H](CC(C)C)NC(=O)[C@H](CO)NC(=O)[C@@H](N)CSC1CC(=O)N(CCNC(=O)CCCCCN2C(=CC=C3CCCC(C=CC4=[N+](CCCCS(=O)(=O)[O-])c5ccc(S(=O)(=O)O)cc5C4(C)C)=C3Oc3ccc(S(=O)(=O)O)cc3)C(C)(C)c3cc(S(=O)(=O)O)ccc32)C1=O)C(C)C)C(C)C)C(=O)N[C@@H](CC(C)C)C(=O)N[C@@H](Cc1ccccc1)C(=O)N[C@@H](CCC(N)=O)C(=O)N[C@@H](CCCCN)C(=O)N[C@@H](Cc1ccccc1)C(=O)O` (stereo partly shown): “time to peak fluorescence” 30 min (ex vivo fluorescence imaging; C.B-17 SCID mouse, OSPC-ARK-1 xenograft, tumour; intraperitoneal, 10 µg).
`CNC(=O)Oc1cccc2c1OC(C)(C)C2`: “surface body temperature” 30 to 31 °C (male ES1−/− mice; subcutaneous, 1 mg/kg, 0.5 h).
For `Pillar[6]MaxQ`, the NOAEL was 45 mg/kg (Swiss Webster mice, female; intravenous, tail vein, 2 day).
With `CCCSc1nc(N[C@@H]2C[C@H]2c2ccc(F)c(F)c2)c2nnn([C@@H]3C[C@H](OCCO)[C@@H](O)[C@H]3O)c2n1` the AUC(0-6 h) was 1.39 µg·h/mL (STEMI patients, plasma; 180 mg loading dose, 6 h, median, added: fentanyl).
`CSCC[C@@H]1NC(=O)[C@H](CC(C)C)NC(=O)[C@H](CCCNC(=N)N)NC(=O)[C@H](CO)NC(=O)[C@@H]2CSSC[C@@H]3NC(=O)[C@H](CO)NC(=O)CNC(=O)[C@H]([C@@H](C)O)NC(=O)[C@H](CSSC[C@H](N)C(=O)N[C@@H](CCCCN)C(=O)NCC(=O)N[C@@H](CCCCN)C(=O)NCC(=O)N[C@@H](C)C(=O)N[C@@H](CCCCN)C(=O)N2)NC(=O)[C@H](CSSC[C@@H](C(N)=O)NC(=O)[C@H](CCCCN)NC(=O)CNC(=O)[C@H](CO)NC(=O)[C@H](CCCNC(=N)N)NC3=O)NC(=O)[C@H](CC(=O)O)NC(=O)[C@H](Cc2ccc(O)cc2)NC1=O` — result for “peptide remaining intact”: > 85% (RP-HPLC; 0.25 M HCl; 0.1 mM, 6 h, 37 °C).
`CCOP(=S)(OCC)Oc1ccc([N+](=O)[O-])cc1`: “surface body temperature drop” 2 °C (male ES1+/+ mice; subcutaneous, 12.5 mg/kg, 6 h; reference: baseline).
Under “remaining parent mustard”, `CN(CC#CCOC(=O)Nc1cccc(Cl)c1)CCBr` is recorded as 30% (solution; time not given; reference: starting concentration).
For `CC(C)C[C@H](NC(=O)[C@@H]1C[C@@H](O)CN1C(=O)[C@H](Cc1ccccc1)NC(=O)[C@H](CO)NC(=O)[C@H](C)NC(=O)[C@H](Cc1ccccc1)NC(=O)[C@@H](NC(=O)[C@H](CCC(=O)O)NC(=O)[C@H](Cc1c[nH]cn1)NC(=O)[C@@H](NC(=O)[C@@H](NC(=O)[C@H](CCC(N)=O)NC(=O)[C@H](C)NC(=O)[C@@H](N)CC(=O)O)[C@@H](C)O)C(C)C)C(C)C)C(=O)N[C@@H](CC(=O)O)C(=O)N[C@@H](CO)C(=O)N[C@@H](CC(=O)O)C(=O)NCC(=O)N[C@H]1CSSC[C@@H](C(N)=O)NC(=O)[C@H](Cc2ccc(O)cc2)NC(=O)[C@H](Cc2c[nH]cn2)NC(=O)[C@H](CCCCN)NC(=O)CNC(=O)[C@@H]2CSSC[C@H](NC1=O)C(=O)N[C@@H](Cc1c[nH]c3ccccc13)C(=O)N[C@@H](CC(N)=O)C(=O)N1CCC[C@H]1C(=O)N[C@@H](C)C(=O)N2`, the LD50 was 0.118 nmol/g (adult wild-type zebrafish; intraperitoneal).
`CCOP(=S)(OCC)Oc1nc(Cl)c(Cl)cc1Cl`: “time to first toxic signs” 6 h (male ES1+/+ mice; transdermal, 100 mg/kg).

Excerpt of the above:
For `CC(C)C[C@H](NC(=O)[C@@H]1C[C@@H](O)CN1C(=O)[C@H](Cc1ccccc1)NC(=O)[C@H](CO)NC(=O)[C@H](C)NC(=O)[C@H](Cc1ccccc1)NC(=O)[C@@H](NC(=O)[C@H](CCC(=O)O)NC(=O)[C@H](Cc1c[nH]cn1)NC(=O)[C@@H](NC(=O)[C@@H](NC(=O)[C@H](CCC(N)=O)NC(=O)[C@H](C)NC(=O)[C@@H](N)CC(=O)O)[C@@H](C)O)C(C)C)C(C)C)C(=O)N[C@@H](CC(=O)O)C(=O)N[C@@H](CO)C(=O)N[C@@H](CC(=O)O)C(=O)NCC(=O)N[C@H]1CSSC[C@@H](C(N)=O)NC(=O)[C@H](Cc2ccc(O)cc2)NC(=O)[C@H](Cc2c[nH]cn2)NC(=O)[C@H](CCCCN)NC(=O)CNC(=O)[C@@H]2CSSC[C@H](NC1=O)C(=O)N[C@@H](Cc1c[nH]c3ccccc13)C(=O)N[C@@H](CC(N)=O)C(=O)N1CCC[C@H]1C(=O)N[C@@H](C)C(=O)N2`, the LD50 was 0.118 nmol/g (adult wild-type zebrafish; intraperitoneal).
